Assay results pooled from the literature.
Numbered parts are unrelated; each lists some results of a single study. Substitutions count along the parent as printed.

Study 1 — target: CCNF, cyclin fold, Cln2 fusion (human); technique: yeast growth competition, sequencing; matrix: yeast; notes: strong parent motif; relative to: not given; reading: higher = stronger binding
Starting sequence: E2F1 docking peptide (human); PPVKRRLDFETDH
Substitution	normalised enrichment score
PPVKRRLDIETDH [F9I]	4.73
PPVKRRLDYETDH [F9Y]	6.42
PDVKRRLDFETDH [P2D]	7.26
PPVKRRLDQETDH [F9Q]	1.17
PPVKSRLDFETDH [R5S]	-0.096
PHVKRRLDFETDH [P2H]	7.91
PPVKRRLNFETDH [D8N]	7.76
PPVKRRLDFETYH [D12Y]	7.99
PPVKRRLYFETDH [D8Y]	8.33

Study 2 — technique: DHFR PCA, deep sequencing; matrix: yeast; added: (+)-ABA 0.0091 µM; relative to: wild-type fitted maximum; reading: higher = stronger binding
Target: ABI1, truncated, D143A, DHFR fusion (Arabidopsis thaliana)
Notes: methotrexate growth selection, single substitutions
Starting sequence: PYL1, truncated, DHFR fusion (Arabidopsis thaliana); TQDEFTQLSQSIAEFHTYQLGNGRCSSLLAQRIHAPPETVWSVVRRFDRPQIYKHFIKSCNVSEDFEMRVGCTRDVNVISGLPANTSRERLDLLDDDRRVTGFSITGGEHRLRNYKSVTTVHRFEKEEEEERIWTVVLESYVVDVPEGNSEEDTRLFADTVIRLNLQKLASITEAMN; partner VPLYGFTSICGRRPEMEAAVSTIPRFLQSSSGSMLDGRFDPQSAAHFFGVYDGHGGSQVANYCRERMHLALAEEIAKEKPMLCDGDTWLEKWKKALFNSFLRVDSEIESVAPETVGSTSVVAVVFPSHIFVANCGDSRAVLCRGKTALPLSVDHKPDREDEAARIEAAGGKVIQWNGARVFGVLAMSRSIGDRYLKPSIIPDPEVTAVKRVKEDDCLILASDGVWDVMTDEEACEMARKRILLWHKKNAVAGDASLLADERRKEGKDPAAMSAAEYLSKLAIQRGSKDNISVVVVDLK
Substitution	relative binding score
E147P	30.3%
I105F	-8.99%
E64R	25.5%
T39Y	0.817%
S9L	35%
N85Y	68.8%
V76N	-0.69%
D153T	-2.54%
V100D	-9.2%
T160G	-4.78%
T101W	-8.45%

Study 3 — technique: RNA Bind-n-Seq; form: RNA; matrix: in vitro; concentration: 365 nM; relative to: no-protein control; reading: higher = stronger binding
Target: RNA binding protein fox-1 homolog 2, RRM domain, GST-SBP tag (RBFOX2, Homo sapiens, UniProt O43251-10, residues 100-194)
Notes: natural RNA segment, single round, ends assumed
Constant ends, left off below: GGGAGUUCUACAGUCCGACGAUC … UGGAAUUCUCGGGUGCCAA
Construct (chain): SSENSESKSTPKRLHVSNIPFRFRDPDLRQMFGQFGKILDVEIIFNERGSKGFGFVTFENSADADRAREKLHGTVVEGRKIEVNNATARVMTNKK
Oligonucleotide	RBNS enrichment (R)
UGGACUAAACUGCACCAAGGAAACACCCAGCAGGGUCUCCUGUGAGCCGGGGACCAUGCAGCCCGAAACCUCCAGUCACUGCGCCCGGCAGGAGUCAGGAGCCAGGGACU	0.78
CCAGAUAUUUGAUGAGGUGCUAUGUUUGUGAAAAACAUAUCAUGUAAUUCAAAAACACUAUUGAUAUUGAAUACCAGAUACCACUAUGUAGUAAGUCUUUUAGGAUGAUU	0.287
UCCUGCUUUCUGCCCAAGAGUGUGUGUAUGAGGUAAAUCUGUGGCAUAAUGUACCAUUGGCUCACACCAGCUGUACAUAUGUGUACAUAGCAGAAUCUAAUAAAGCCCUC	0.235
UGAUGUAUCUUCAUUGUCAUCUCUCAUCCUGAUGUGUGCCAGUUAGAGGACUGUCUGGUAUCCAAGACGACUAGUGUAUGUCAGGUCCUCAAAUCACCAACAGCUUGUUA	1.37
CAGAAAGCAAGGGGUGCCUAAAUCUAGACUUGGGGUCCACACCGGGCAGCGGGGUUGCAACCCAGCACCUGGUAGGCUCCAUUUCUUCCCAAGCCCGAGCAGAGGGUCAU	0.393
UACUGACCGCUAUAGAGCAGAUACUCUGAGGGCCGACCCUCGCCUUUUCAUAGACAGACGAGGCAACUGCAUAUAGGUUUUGUCUUUAAAACCACCUUUAAUCUAGAUAC	0.284
AACGCGCCUGAAACACCCCGCGGGCCUCCCGUUGUCAUGCCUUACGGUUUCCAAUGCGCCGUCACCAUCUCCACCUGCCACCAAACCACCAGCAGAGUAGCCGCCGCUGC	0.784
ACAGGCUUGCCUGGCCCCAGGGACACUACUGCUACUGUAGCUGUGGCAGGGACCAACCAGGCUGCCUGUGCCCGUCUGCUGCCUCCGAGACACCAGAGGUCUGCUGCAGA	0.166
UAAAAUAUCCACUGGACACUGUGAAAUACACUAACAGGAUGGCUGGGUAGAGCAAUCUGGGCACUUUGGCCAAUUUUAGUCUUGCUGUUUCUUGAUGCUCACCUCUAUAU	0.279
GAGACCAGAGAGACUGUAGUUCCCUAUUUUAACCUCAAUUAUGCAUUUGUCCCCCAACCCCACUGAGAACUAAAUGCUGUACCACAGAGCCGGGUGUGAACUAUGGUUUA	1.15
UCUGAGAUGUUCGGACUUUUAAAUUCAUGUAAAUAUCUCCUCUUCUGCUGUGUGUACAUAGGACUACAUAGUCUAUCCUAGAGAUAAAUAAACAACCAUAUUUACCAUGU	0.285
CAAAUUGAGUUGAUGGAUUUAAGAUAAGCCUUUGGGGUUCCUGUCAGUUUUCUGGGCCCUGAGGAAGGGUUGGGCCUCCUUUACUCUCAGUAUUUUGAGUGUUUUUCAAA	0.551

Single results of other studies
Substance	target	assay	test system	setting	scale	measurement	result
PhoQ, residues 284 288 289 292 302 303 SSTLSG	PhoP, residues 12 14 15 18 19 NQFFI (Escherichia coli, UniProt P23836)	Sort-seq, measured: YFP reporter	E. coli	PhoQ-PhoP variant library, added: 10 µM Mg2+	relative to: high Mg2+ state, higher = stronger signaling	fold induction	9.36
